Published values of several laboratories.
Each numbered part is a random draw from the data of one study; scales do not carry over between parts.

Series 1
Target: Sal-like protein 4, full length isoform A (SALL4, Homo sapiens, UniProt Q9UJQ4, residues 1-1053)
Chain of UniProt Q9UJQ4 (whole entry, looked up): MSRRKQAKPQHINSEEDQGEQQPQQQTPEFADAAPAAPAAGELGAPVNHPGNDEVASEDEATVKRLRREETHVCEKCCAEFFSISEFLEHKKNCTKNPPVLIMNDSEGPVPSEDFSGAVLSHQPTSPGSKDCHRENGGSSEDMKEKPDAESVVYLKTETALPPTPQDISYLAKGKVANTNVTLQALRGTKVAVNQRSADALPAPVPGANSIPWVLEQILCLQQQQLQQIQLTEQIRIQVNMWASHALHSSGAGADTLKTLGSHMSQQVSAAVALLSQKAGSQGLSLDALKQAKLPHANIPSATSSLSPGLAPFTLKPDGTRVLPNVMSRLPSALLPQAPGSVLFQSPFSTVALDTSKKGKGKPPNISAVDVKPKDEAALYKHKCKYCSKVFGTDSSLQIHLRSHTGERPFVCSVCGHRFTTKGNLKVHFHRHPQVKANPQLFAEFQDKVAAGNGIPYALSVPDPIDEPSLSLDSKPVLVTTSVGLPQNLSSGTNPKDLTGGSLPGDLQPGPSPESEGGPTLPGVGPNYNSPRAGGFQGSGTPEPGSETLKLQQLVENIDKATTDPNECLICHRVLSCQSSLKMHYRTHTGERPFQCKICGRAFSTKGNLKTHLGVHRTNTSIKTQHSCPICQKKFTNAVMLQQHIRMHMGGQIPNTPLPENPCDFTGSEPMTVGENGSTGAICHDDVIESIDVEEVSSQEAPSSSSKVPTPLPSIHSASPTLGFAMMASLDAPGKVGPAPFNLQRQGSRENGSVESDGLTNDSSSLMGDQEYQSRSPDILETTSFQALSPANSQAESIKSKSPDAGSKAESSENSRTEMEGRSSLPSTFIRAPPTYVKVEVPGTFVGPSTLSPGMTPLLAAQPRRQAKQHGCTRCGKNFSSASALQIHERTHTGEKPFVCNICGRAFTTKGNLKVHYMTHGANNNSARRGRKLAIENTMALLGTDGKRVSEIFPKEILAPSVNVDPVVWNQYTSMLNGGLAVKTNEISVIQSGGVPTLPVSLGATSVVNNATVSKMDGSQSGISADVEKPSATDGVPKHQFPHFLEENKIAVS
Method: universal PBM
Form: double-stranded DNA, one strand shown
Sample: in vitro
Concentration: 600 nM
Notes: 8-mer, flanks averaged, mean of replicates
Reading: higher = stronger binding
Oligonucleotide	E-score
GGCGGGAA	-0.104
CTACCTCA	-0.185
ACATGCGA	0.0888
ATTACTGA	0.275
CATCTTGA	0.00395
CTAACAGA	0.0449
CCTGTCAC	-0.22
AGGAGCTA	-0.132
AGCGGAAA	-0.0183
AATTAATT	0.38
ACCCTTCA	0.012
GACCTAAA	-0.00805
AAACTCTA	0.183
CCTTGTCG	-0.0469
GGGGACCC	-0.44
GTTTCACA	0.127
TACTTATA	0.329
ATCGCGGC	-0.165
CCAATCAC	0.0238
AAAGTATC	0.182
GAACGATA	0.183
GGACGTTA	0.0155
GTGTGCGA	-0.134
AGTAACAC	0.0859
CGACTATC	-0.139

Series 2
Target: Interferon regulatory factor 7, full length, phosphomimetic (IRF7, Homo sapiens, UniProt Q92985, residues 1-503, S101K/S471D/S472D/S475D/S476D/S477D/S483D/S484D/S487D)
Method: protein-binding microarray
Form: double-stranded DNA, one strand shown
Sample: in vitro
Concentration: 250 nM
Notes: 60-bp whole probe
Added: salmon DNA 0.4 mg/ml
Relative to: random background probes
Reading: higher = stronger binding
Shared flanks, not repeated: GCCTAGCAC … GTCTTGATTCGCTTGACGCTGCTG
Target sequence (chain): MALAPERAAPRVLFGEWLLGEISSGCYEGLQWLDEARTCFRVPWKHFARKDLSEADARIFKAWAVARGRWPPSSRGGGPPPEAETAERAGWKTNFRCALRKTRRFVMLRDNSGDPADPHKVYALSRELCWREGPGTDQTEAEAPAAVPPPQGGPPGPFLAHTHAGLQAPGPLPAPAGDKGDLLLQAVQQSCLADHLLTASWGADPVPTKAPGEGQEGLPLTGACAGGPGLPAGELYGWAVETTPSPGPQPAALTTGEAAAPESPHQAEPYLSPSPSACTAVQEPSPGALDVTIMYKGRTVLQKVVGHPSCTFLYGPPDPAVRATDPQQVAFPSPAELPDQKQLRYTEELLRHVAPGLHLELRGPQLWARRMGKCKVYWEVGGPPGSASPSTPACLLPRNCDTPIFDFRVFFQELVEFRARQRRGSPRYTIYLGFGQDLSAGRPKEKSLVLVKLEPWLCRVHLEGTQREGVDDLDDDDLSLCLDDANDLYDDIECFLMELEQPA
Oligonucleotide	log fluorescence [z-score]
TTAGGGATCGACACTGGGTTAGTGCTA	-0.558
ATAGGACTGGGACTGGGTTAGTGCTAG	-0.069
TTAGGTATCCGACTGGGTTAGTGCTAG	-0.151
TTTGCTTTCCTTCTTGAACTGTGCTAG	0.994
TTAGGTTTCATACTGCTTTAGTGCTAG	1.55
ACTTTTTTTAATTGAGAAGCGTGCTAG	0.85
TTAGGTTTCGACACTGGGTTGGTGCTA	3.38
TTAGATATTAGACTGGATTAGTGCTAG	0.041
TTAGGTTTCGCTATCGGTTAGTGCTAG	8.64
TTAGGTTACGGGTATCGGTTAGTGCTA	1.33
TCACAGCTGTTTTTCTCACTGTGCTAG	-0.184
AGGAATCTTGAGTTAGAGACGTGCTAG	-0.246
GACGGTTTCCCTTTCCTGACGTGCTAG	5.83
AACGGACTGGGGTTTCGGGACGTGCTA	1.14
AATAAAATGAATATTAGAAGGTGCTAG	-0.117
TTTTTTCTTTTATTAGTGACGTGCTAG	2.85
TTCGGACTGGGGTTTCGGTTAGTGCTA	4.99
TCCATTTTCAGAATTTACTTGTGCTAG	1.09

Series 3
Target: RING finger protein unkempt homolog, zinc fingers 1-6, GST-SBP tag (UNK, Homo sapiens, UniProt Q9C0B0, residues 30-357)
Method: RNA Bind-n-Seq
Form: RNA
Sample: in vitro
Concentration: not given
Notes: RNA with constant flanks, ends assumed
Relative to: input RNA pool
Reading: higher = stronger binding
Construct (chain): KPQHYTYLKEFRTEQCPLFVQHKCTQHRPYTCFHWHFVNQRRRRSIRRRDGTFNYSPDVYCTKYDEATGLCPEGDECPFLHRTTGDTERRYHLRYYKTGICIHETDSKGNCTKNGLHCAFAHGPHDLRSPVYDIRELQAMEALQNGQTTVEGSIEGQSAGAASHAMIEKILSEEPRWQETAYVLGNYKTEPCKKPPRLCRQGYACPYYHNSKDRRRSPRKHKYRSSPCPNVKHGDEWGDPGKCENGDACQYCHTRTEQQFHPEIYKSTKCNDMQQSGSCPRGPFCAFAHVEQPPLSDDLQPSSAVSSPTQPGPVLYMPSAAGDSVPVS
Oligonucleotide	bound/input enrichment [ratio]
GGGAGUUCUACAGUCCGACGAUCAAAUGACCUUUAACUUUUCUAAAAAUGUGAAGUUUUGUACUUACAUAUCAUCUAAAGUAUUACCGCAUUUUUAAGUGUACUUAGUUUGAUGCCACUUUUAGUGUUUUGUUGCUUUUGUCUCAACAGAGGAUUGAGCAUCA	1.18
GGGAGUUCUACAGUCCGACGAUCCCUGGGACUUUGGUUCAGUGCUUGAGGCUGCCAAAGUUUGCAGAGGAGGAGAAUCUUUGUACCGACUCAAUAACUCCUUGUGCUGACGGAAUUCAUUUGUUGGUAGGACUGCGGACAUGCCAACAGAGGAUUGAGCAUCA	0.0925
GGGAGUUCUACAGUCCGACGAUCCAUCUCGCCCACGUGGUGUUAAGCGUCGCUGGAGACUUAGUCGCAUUGUCUUCCGCCACUCCGCUGACCACGGGCUACUUUCUGGAGUCCAGCGAGCGAUAUGGUAAAACCAUUUCAGAACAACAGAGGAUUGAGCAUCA	0.0732
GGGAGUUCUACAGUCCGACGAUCGUAUACGGUUAUCGAGGAAAGGACUGUAGAGCGAAUGUAUACCUGCUUCCCACAGGGGAGACCGUUUAUUUUAUCGCCUCAGUGGUAGUCCUGUUUAAUUAUGAGGAGAGGACUCAGCGACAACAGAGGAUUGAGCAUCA	0.249
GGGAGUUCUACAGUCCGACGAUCCUGGAAGGUUGUUGGCGCACGCGAUUGAAGCGGCGCACUCGGAGUAAACGCGGCUGGCGGCCGUACGUGUGUCUUUUUGCUGAGGGCAGUUAUGUUUCUCCAAUAUUACCUCAACGAGCACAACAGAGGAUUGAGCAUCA	0.246
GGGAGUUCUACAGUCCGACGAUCUAUGAAGUAUUUCAGACCCAGUAGUAGAACAUCACUCUGCCACUCACUCCUUUAUCUCCUACCCGUUAUUUAAAUUGGACUUUUAAUAUCCUACCAGCUGCUCUUCAGACACACAUGGUGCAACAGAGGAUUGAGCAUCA	1.01
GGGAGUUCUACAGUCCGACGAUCUAAUAUAUUUUUCCUACUUGUGGGAAAAGUAUUAUAAGUUUGGUUAAAUUGUCAUGUUUACCGUUUUUCCAAGUACAUUUGUAACUACAGCAGGCCUUCUUCGUACUGCUGCUGUUGGACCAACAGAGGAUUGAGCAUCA	0.251
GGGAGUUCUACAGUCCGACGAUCUGUAGUUUCUUGAUUUAUCAUUUUUCUCUUUUCUUUCUUUCCUUUAGGAAAAGCCUAAAGAUCCGGUUGUAAGAAAAACAGAAGCCAUGUUUCGAAGACCUGUGUUACAGGUAUUUCGUCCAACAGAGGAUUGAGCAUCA	0.159

Series 4
Target: Histone acetyltransferase KAT6A, winged helix 2, GST fusion (KAT6A, Homo sapiens, UniProt Q92794, residues 85-181)
Method: protein binding microarray
Form: double-stranded DNA, one strand shown
Sample: in vitro
Concentration: not given
Notes: 8-mer, flanks averaged, mean of 2 arrays, mostly near background
Relative to: not given
Reading: higher = stronger binding
Target sequence (chain): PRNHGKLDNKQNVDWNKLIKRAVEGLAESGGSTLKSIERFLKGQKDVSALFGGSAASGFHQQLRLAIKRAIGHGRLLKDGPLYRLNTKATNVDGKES
Oligonucleotide	E-score
CGTAAGCC	-0.0173
AAGAATCT	-0.0811
AAGAGAGC	-0.0284
ATCGTTCA	-0.106
CTACACTA	-0.111
AACTATAC	-0.00525
CAGCTGTA	-0.125
CCATAACA	0.156
CCTTCTGA	0.11
ACTCACGC	-0.000365
CTGGCCCA	0.15
CGGATAAC	0.072
AAACAGGC	-0.126
AAAGGAAC	0.0203
CATATTCG	-0.0211
ACTAGCAG	-0.0194
GTTCTTCA	0.0559
ATTGGGGG	-0.118

Some of these lines once more (series 1):
Oligonucleotide	E-score
CCTGTCAC	-0.22
AGGAGCTA	-0.132
AGCGGAAA	-0.0183
AATTAATT	0.38
ACCCTTCA	0.012
GACCTAAA	-0.00805
AAACTCTA	0.183
CCTTGTCG	-0.0469
